Measurements of several laboratories.
Every numbered part comes from another study and shows a few of its results, in no order. Substitutions count along the parent as printed.

Set 1 — technique: protein binding microarray; form: double-stranded DNA, one strand shown; sample: in vitro; tested at: not given; reference: not given; direction: higher = stronger binding; quantity: E-score
Target: Histone acetyltransferase KAT6A, winged helix 2, GST fusion (KAT6A, Homo sapiens, UniProt Q92794, residues 85-181)
Setting: 8-mer, flanks averaged, mean of 2 arrays, mostly near background
Target sequence (chain): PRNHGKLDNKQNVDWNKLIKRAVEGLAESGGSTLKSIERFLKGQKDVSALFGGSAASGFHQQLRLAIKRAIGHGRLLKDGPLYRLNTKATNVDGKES
ACCTGGAA: 0.0521
CTCTAAAC: -0.217
AGACGTTG: -0.0418
GAAGCATA: 0.0693
AGTCTTGG: -0.19
GAAGTACA: -0.0259
CCCGGCTC: 0.242
AGGTGTTA: -0.0853
GTTATAGA: -0.00429
ATAACCCC: -0.204
CCCTGTAG: -0.0741
CCGTAGCA: -8.5e-05
ATAAAGGA: -0.0716
CGGAGGCA: 0.107
AACCTCAG: -0.0795
AACAGGCA: -0.0929
AGGTAAGG: -0.137
GAGAACGA: 0.00748
AGCATCCG: 0.138
ATGGAGGG: 0.0532
ATATACCC: -0.0751
TAGGCATA: -0.0695
CAACGCGG: 0.0866
CGCTTGGA: 0.0787
ACCCACAT: -0.00089

Set 2 — technique: universal PBM; form: double-stranded DNA, one strand shown; sample: in vitro; tested at: 600 nM; direction: higher = stronger binding; quantity: E-score
Target: Sal-like protein 4, full length isoform A (SALL4, Homo sapiens, UniProt Q9UJQ4, residues 1-1053)
Sequence of UniProt Q9UJQ4 (whole entry, looked up): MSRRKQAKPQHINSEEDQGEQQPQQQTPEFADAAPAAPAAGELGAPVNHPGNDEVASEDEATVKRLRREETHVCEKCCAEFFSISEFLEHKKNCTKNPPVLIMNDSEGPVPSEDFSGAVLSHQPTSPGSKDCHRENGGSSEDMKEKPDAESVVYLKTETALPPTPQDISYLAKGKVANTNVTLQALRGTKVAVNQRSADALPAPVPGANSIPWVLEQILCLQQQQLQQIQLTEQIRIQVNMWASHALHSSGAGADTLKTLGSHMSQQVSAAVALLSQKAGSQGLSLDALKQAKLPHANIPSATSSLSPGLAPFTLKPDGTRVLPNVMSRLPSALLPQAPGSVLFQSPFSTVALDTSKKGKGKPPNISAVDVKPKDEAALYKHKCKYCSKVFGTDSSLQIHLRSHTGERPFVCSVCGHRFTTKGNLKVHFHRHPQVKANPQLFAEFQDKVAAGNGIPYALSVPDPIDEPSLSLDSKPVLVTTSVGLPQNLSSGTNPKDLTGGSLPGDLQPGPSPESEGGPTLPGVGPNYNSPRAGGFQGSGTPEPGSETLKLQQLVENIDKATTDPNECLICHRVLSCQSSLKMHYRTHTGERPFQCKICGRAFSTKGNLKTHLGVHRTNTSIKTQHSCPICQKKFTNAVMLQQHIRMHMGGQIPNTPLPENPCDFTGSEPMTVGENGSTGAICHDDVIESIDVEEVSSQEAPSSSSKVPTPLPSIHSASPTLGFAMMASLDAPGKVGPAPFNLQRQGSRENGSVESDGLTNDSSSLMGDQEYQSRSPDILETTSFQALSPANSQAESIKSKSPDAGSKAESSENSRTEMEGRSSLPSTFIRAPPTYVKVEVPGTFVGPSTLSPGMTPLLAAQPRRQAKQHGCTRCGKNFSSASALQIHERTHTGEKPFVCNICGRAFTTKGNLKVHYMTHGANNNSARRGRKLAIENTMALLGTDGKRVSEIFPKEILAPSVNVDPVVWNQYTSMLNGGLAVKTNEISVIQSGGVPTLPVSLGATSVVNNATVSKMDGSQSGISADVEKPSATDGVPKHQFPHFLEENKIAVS
Setting: 8-mer, flanks averaged, mean of replicates
CGCTAGCG: -0.301
ACGGTGGC: -0.23
AACCTTAC: 0.152
AGTGGTAA: 0.102
GCCTGTAA: -0.0476
CTCCTGAC: -0.158
CCAAACAC: 0.00945
GGCGGATA: -0.134
GCTTTTTA: 0.204
CCAGGTGA: -0.158
TAATGGCA: 0.11
ACATTTAG: 0.196
CGTACTTC: 0.0941
ACGATGCG: -0.0721
ACTACGCT: 0.0238
ATTTCCTG: 0.213
ACAGGGCT: -0.287
GGTTGTGA: 0.0124
CTGCAATA: 0.296
AGCACGGC: -0.172
ATGTCGAC: 0.048

Set 3 — target: CCNA1, cyclin fold, Cln2 fusion (human); technique: yeast growth competition, sequencing; sample: yeast; setting: weak parent motif; reference: not given; direction: higher = stronger binding; quantity: normalised enrichment score
Starting sequence: CABLES2 docking peptide (human); ICAKRSLCAAFSV
F11A: 0.411
C8A: 0.176
L7A: -0.144
I1A: -0.207
S12A: 0.433

Set 4 — technique: protein-binding microarray; form: double-stranded DNA, one strand shown; sample: in vitro; tested at: 2540 nM top; setting: 60-bp whole probe; with: salmon DNA 0.4 mg/ml; reference: random background probes; direction: higher = stronger binding; quantity: fitted relative affinity; constant ends, left off below: GCCTAGCAC … GTCTTGATTCGCTTGACGCTGCTG
Target: Interferon regulatory factor 3, full length, phosphomimetic (IRF3, Homo sapiens, UniProt Q14653, residues 1-427, S386D/S396D/S398D/S402D/T404D/S405D)
Sequence of UniProt Q14653 (whole entry, unmodified, looked up): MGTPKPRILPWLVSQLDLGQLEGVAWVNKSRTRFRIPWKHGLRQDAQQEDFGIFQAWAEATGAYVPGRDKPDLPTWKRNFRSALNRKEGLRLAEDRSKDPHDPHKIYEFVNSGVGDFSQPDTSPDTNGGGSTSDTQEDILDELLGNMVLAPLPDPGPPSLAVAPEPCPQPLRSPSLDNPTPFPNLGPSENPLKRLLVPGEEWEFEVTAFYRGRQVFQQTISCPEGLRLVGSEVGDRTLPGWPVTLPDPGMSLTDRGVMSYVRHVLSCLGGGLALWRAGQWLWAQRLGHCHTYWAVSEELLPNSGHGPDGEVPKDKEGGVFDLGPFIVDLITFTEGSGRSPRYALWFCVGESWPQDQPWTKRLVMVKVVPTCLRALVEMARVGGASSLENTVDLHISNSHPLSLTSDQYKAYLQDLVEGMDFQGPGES
GAGGGTTTCCTTATCCTGACGTGCTAG: 6.51 z-score
TCATAAACTAGAAACTGAACTGTGCTA: 0.163 z-score
GACGGTCTCGGTCTCGGCACGTGCTAG: 1.39 z-score
GAAGGTATCGACTTTCGGGACGTGCTA: 1.29 z-score
GGCGATTTCAGTCTCGAGACGTGCTAG: 2.19 z-score
GAGGGTCTCCTACTGCTGACGTGCTAG: 0.0392 z-score
GACGATCTCAGTATCGAGAGGTGCTAG: 0.66 z-score
ATAGGTATCCTTTTCCTTTAGTGCTAG: 8.1 z-score
GGATATATATCATTTAATTAGTGCTAG: 0.701 z-score
GACGAACTGGGGTTTCGAGAGGTGCTA: -0.0243 z-score
TCAATTTTTAGGATGGGACTGTGCTAG: -0.0861 z-score
TCATCTTTCCTCACCATACTGTGCTAG: 2.23 z-score
GGCGGACTGGACACTGGGGACGTGCTA: -0.965 z-score
CTTTATTTAAGCTCCTATCTTGTGCTA: 1.64 z-score
TTATGTATCGGGACTGGGTTAGTGCTA: 1.32 z-score
ATTTGTAAGTACATTAACTCGTGCTAG: 0.519 z-score
ATAGGACTGGACTTTCGGTTAGTGCTA: 1.25 z-score
TTAGCTATCAGTTTCGATTAGTGCTAG: 4.44 z-score

Further values, each from its own experiment
PhoQ, residues 284 288 289 292 302 303 TASMAF
fold induction (PhoP, residues 12 14 15 18 19 NHTVL (Escherichia coli, UniProt P23836); Sort-seq, item: YFP reporter; E. coli; PhoQ-PhoP variant library, with: 10 µM Mg2+; reference: high Mg2+ state, higher = stronger signaling): 4.38

Some of these lines once more (set 4):
GACGAACTGGGGTTTCGAGAGGTGCTA: -0.0243 z-score
CTTTATTTAAGCTCCTATCTTGTGCTA: 1.64 z-score
GACGATCTCAGTATCGAGAGGTGCTAG: 0.66 z-score
GAAGGTATCGACTTTCGGGACGTGCTA: 1.29 z-score
GGCGGACTGGACACTGGGGACGTGCTA: -0.965 z-score
TCATCTTTCCTCACCATACTGTGCTAG: 2.23 z-score
